# Published values from different studies.
# Compare with care: the assays were run in different laboratories. Numbers after ± are the reported error.
Compound,target or system,assay,test system,setting,EC50 [µM]
CCOc1ccc(N(C)S(=O)(=O)c2cc(Cl)sc2C(=O)Nc2cc(Cl)cc(C(=O)OCCOC)c2)cc1OC,CCF-STTG1,"ABCA1 promoter reporter, activator, luciferase reporter",,,0.066
N#Cc1ccc(C[C@H](Nc2nnc(-c3cccc(Br)c3)o2)C(=O)N2CCc3ccccc32)cc1,human neutrophils,"calcium mobilization, agonist",,,35.9 ± 9.7
CCOC(=O)c1cc(Cl)cc(NC(=O)c2sc(Cl)cc2S(=O)(=O)N(C)c2ccc(OCC)c(OCC)c2)c1,CCF-STTG1,"ABCA1 promoter reporter, activator, luciferase reporter",,,0.247
OCCN(CCO)c1nc(N2CCCCC2)c2nc(N(CCO)CCO)nc(N3CCCCC3)c2n1,"Jurkat T cells, FKBP51 knock-out","[3H]-thymidine incorporation, inhibitor",,3 h,0.0723
CCOc1ccc(N(C)S(=O)(=O)c2cc(Cl)sc2C(=O)Nc2cccc(S(C)(=O)=O)c2)cc1OCC,CCF-STTG1,"reporter gene, activator, measured: ABCA1 promoter luciferase",,24 h,12.6
O=C(Nc1ccc(-c2ccccc2)cc1)[C@H]1O[C@H](O[C@@H]2[C@@H](OCc3ccc4ccccc4c3)[C@H](O[C@H]3O[C@H](CNS(=O)(=O)O)[C@@H](OCc4ccc5ccccc5c4)C[C@H]3NS(=O)(=O)O)[C@@H](NS(=O)(=O)O)C[C@H]2NS(=O)(=O)O)[C@H](OCc2ccc3ccccc3c2)[C@@H](NS(=O)(=O)O)[C@@H]1OCc1ccc2ccccc2c1,MCF-10A,cytotoxicity,,48 h,51.6 ± 1.87
CCOC(=O)c1cc(Cl)cc(NC(=O)c2sc(Cl)cc2S(=O)(=O)N(C)c2ccc(OCC)c(OC)c2)c1,CCF-STTG1,"reporter gene, activator, measured: ABCA1 promoter luciferase",,24 h,0.1
CCCNC(=O)[C@H]1O[C@@H]1C(=O)N[C@H](C(=O)N1CCC[C@H]1C(=O)OC)[C@@H](C)CC,MCF-10A,"cell viability, MTT",,"concentration not given, 4 h, irradiated 15 min up to 470 nm",> 100
O=C(c1cc(Cc2n[nH]c(=O)c3ccccc23)ccc1F)N1CCN(C(=O)C2CC2)CC1,MEF PTEN-/-,"cell proliferation, CellTiter-Glo",,168 h,0.24
CCn1cc(-c2cc(Cn3ccnc3)cc3c2CCN([C@H](c2cc(OC)ccn2)C2CC2)C3=O)c(C(F)(F)F)n1,FaDu,"cell growth, inhibitor",,120 h,> 30
N#Cc1ccc(C[C@@H](Nc2nnc(-c3ccc(Br)cc3)o2)C(=O)N2CCc3ccccc32)cc1,human neutrophils,"calcium mobilization, agonist",,,> 50
CCOC(=O)c1cccc(NC(=O)c2sc(Cl)cc2S(=O)(=O)N(C)c2ccc(N(C)C)cc2)c1,CCF-STTG1,"reporter gene, activator, measured: ABCA1 promoter luciferase",,24 h,5
CC[C@H]1CN2CCc3cc(OC)c(OC)cc3[C@@H]2C[C@@H]1C[C@H]1NCCc2cc(OC)c(OC)cc21,Toxoplasma gondii,"parasite growth, luciferase reporter","HFF host cells, tachyzoites",72 h,0.03
CCn1cc(-c2cc(Cn3ccoc3=N)cc3c2CCN([C@@H](C)c2cc(OC)ccn2)C3=O)c(C(F)(F)F)n1,COLO-668,"cell growth, inhibitor",,120 h,10.9
Cc1nn(-c2nc3c(F)cc(F)cc3s2)c(O)c1C(c1ccc(C(F)(F)F)cc1)c1c(C)nn(-c2nc3c(F)cc(F)cc3s2)c1O,RAW-ISG (mouse),"IFN reporter gene, inhibitor, luciferase",,together with: HT-DNA,2.67
N#Cc1ccc(C[C@@H](NC(=O)c2cc3ccccc3[nH]2)C(=O)N2CCc3ccccc32)cc1,human neutrophils,"calcium mobilization, agonist",,,> 50
COc1cnc2cccc(N3CCc4c(cc(Cn5ccnc5C)cc4-c4cn(C)nc4C(F)(F)F)C3=O)c2c1,SK-LU-1,"cell growth, inhibitor",,120 h,> 30
N#Cc1ccc(C[C@@H](NC(=O)c2cc3ccc(F)cc3[nH]2)C(=O)N2CCc3ccccc32)cc1,human neutrophils,"calcium mobilization, agonist",,,> 50
C[C@]12CCCN1CC1=NNC(=O)c3cc(F)cc4[nH]c2c1c34,MEF PTEN-/-,"cell proliferation, CellTiter-Glo",,168 h,0.22
CCOC(=O)c1cc(F)cc(NC(=O)c2sc(Cl)cc2S(=O)(=O)N(C)c2ccc(OCC)c(OC)c2)c1,CCF-STTG1,"reporter gene, activator, measured: ABCA1 promoter luciferase",,24 h,0.03
N#Cc1ccc(C[C@H](Nc2nnc(-c3cccc(F)c3)s2)C(=O)N2CCc3ccccc32)cc1,human neutrophils,"calcium mobilization, agonist",,,41.4 ± 6.8
CCOC(=O)c1cccc(NC(=O)c2sc(Cl)cc2S(=O)(=O)N(C)c2ccc(OCC)c(OCC)c2)c1,CCF-STTG1,"ABCA1 promoter reporter, activator, luciferase reporter",,,0.817
N#Cc1ccc(C[C@H](Nc2nnc(-c3cccc(F)c3)o2)C(=O)N2CCc3ccccc32)cc1,human neutrophils,"calcium mobilization, agonist",,,> 50
CCOc1ccc(N(C)S(=O)(=O)c2cc(Cl)sc2C(=O)Nc2ccc3c(c2)C(=O)NC3=O)cc1OC,CCF-STTG1,"reporter gene, activator, measured: ABCA1 promoter luciferase",,24 h,1.6
N#Cc1ccc(C[C@@H](Nc2c(Nc3ccc(Br)cc3)c(=O)c2=O)C(=O)N2CCc3ccccc32)cc1,human neutrophils,"calcium mobilization, agonist",,,> 50
C=CC(=O)N1[C@@H](c2ccc3c(c2)OCO3)c2[nH]c3ccccc3c2C[C@H]1C(=O)NC,rat DRG neurons,neurite degeneration,,"48 h, together with: vincristine 40 nM",3.63
Cc1cccc(-c2nnc(N[C@@H](Cc3ccc(C#N)cc3)C(=O)N3CCc4ccccc43)o2)c1,human neutrophils,"calcium mobilization, agonist",,,36 ± 10.5
CC(C)(C)c1cc(/C=C(\C#N)C(N)=S)cc(C(C)(C)C)c1O,Toxoplasma gondii,parasite growth,"HFF, bradyzoite, alkaline-induced",,7.54
